Measurements gathered from unrelated publications.
Values joined by “and” are separate records of one study, mostly repeats; a detail may differ. ± gives the spread as reported.
Organism: Salmonella typhimurium

SMILES	test	system	setting	scale	quantity	result
CNC(=O)c1c(N(C)N=O)ncn1C	mutagenicity, Ames plate incorporation	TA1537	5000 µg/plate, without S9, methanol	–	revertant colonies per plate	10.7 ± 2
O=[N+]([O-])c1ccc2c(c1)Cc1ccccc1-2	preincubation Ames test	TA98	5 µg per plate	–	revertant colonies per plate	1370
CN(N=O)c1ccc(F)cc1	mutagenicity, Ames plate incorporation	TA98	50 µg/plate, 3 d, without S9, methanol	–	revertant colonies per plate	37.3 ± 8
O=[N+]([O-])c1ccc2c(c1)Cc1ccccc1-2	Ames test, initial	TA98	1.0 µg/plate	relative to: solvent control	revertant ratio	7
Nc1ccc2cc3ccccc3cc2c1	–	TA1537	5 µg/plate, added: rat liver S9	relative to: vehicle control	revertant fold increase	28.4
N#C[C@@]1(n2ccc(N)nc2=O)O[C@H](CO)[C@@H](O)[C@H]1O	–	TA100	5 µM, without S9	relative to: control	viability	104%
CC(C)N(C)N=O	mutagenicity, Ames plate incorporation	TA1535	150 µg/plate, 3 d, without S9, methanol	–	revertant colonies per plate	20.3 ± 3
O=[N+]([O-])c1ccc(N2CCN(CCC(O)c3ccc(F)cc3)CC2)c(C(F)(F)F)c1 (stereo not shown)	SOS response, SOS/umu test	TA1535/pSK1002, TGA medium	0.000488 mg/mL, 4 h, without S9	relative to: untreated	induction factor	0.9
Nc1ccc2cc3ccccc3cc2c1	Ames test, initial	TA1537	2.0 µg/plate, added: rat liver S9	relative to: solvent control	revertant ratio	5.3
O=[N+]([O-])c1ccc(N2CCC(NCCC(O)c3ccc(F)c4ccccc34)CC2)c(C(F)(F)F)c1 (stereo not shown)	SOS/umu test	TA1535/pSK1002, TGA medium	3.05e-05 mg/mL, 4 h, added: 10% rat liver S9	–	survival	104%
CN(CC(C)(C)C)N=O	mutagenicity, Ames plate incorporation	TA98	50 µg/plate, without S9, methanol	–	revertant colonies per plate	24 ± 4
COS(C)(=O)=O	Ames test	TA100	0.2 µg/well, 48 h, without S9	–	revertant colonies	512 colonies/well and 560 colonies/well and 480 colonies/well
OC(CCN1CC=C(c2ccc(F)cc2)CC1)c1ccc(F)c2ccccc12 (stereo not shown)	genotoxicity, SOS/umu test	TA1535/pSK1002	0.008 mg/mL, 4 h, with S9, lower range	–	induction factor	0.6
CCCCCc1cc(/C=C2\N=C(c3ccc[nH]3)C=C2Oc2ccccc2)[nH]c1C.Cl	Ames test	TA98 and TA100	up to 10 µM, with and without S9	–	mutagenicity	negative
CC(=O)N1CCC(C(=O)N2CCN3C(=O)c4cc(-c5ccccc5)ccc4NC(=O)C3C2)CC1 (stereo not shown)	–	TA98	158 µg/plate, added: rat liver S9	relative to: vehicle	fold increase in revertants	1
CC(C)N(N=O)C(C)C	mutagenicity, Ames plate incorporation	TA1537	5000 µg/plate, without S9, methanol	–	revertant colonies per plate	10.3 ± 4
O=[N+]([O-])c1ccc(NC2CCNCC2)c(C(F)(F)F)c1	SOS response, SOS/umu test	TA1535/pSK1002, TGA medium	1 mg/mL, 4 h, added: 10% rat liver S9	relative to: untreated	induction factor	1.6
O=NN1CCN(C2CCCC2)CC1	mutagenicity, Ames plate incorporation	TA100	2500 µg/plate, 3 d, without S9, methanol	–	revertant colonies per plate	155 ± 31
Fc1ccc(C2=CCNCC2)cc1	genotoxicity, SOS/umu test	TA1535/pSK1002	0.063 mg/mL, 4 h, without S9, full range	–	induction factor	0.9
Nc1c2ccccc2nc2ccccc12.Nc1c2ccccc2nc2ccccc12.O	–	TA1537	50 µg/plate, added: without S9	–	mean revertants per plate	255 revertants/plate
Nc1c2ccccc2nc2ccccc12	Ames test, confirmatory	TA1537	75 µg/plate	relative to: solvent control	revertant ratio	62.5
O=C(O)CCCOc1ccc(F)cc1-c1cc(-c2ccccc2C(F)(F)F)n(-c2ccccc2)n1	Ames test	TA98	concentration not given, without S9 metabolic activation	–	growth-inhibiting concentration	≥ 1250 µg/plate
COc1cccc(-c2n[nH]c(SCc3ccccn3)n2)c1OC	Ames test, preincubation	TA98	0.25 mg/plate, without S9	–	revertant colonies per plate	19
Cc1cc(C(=O)NC(C)(C)COc2cccc3c2C(N)=NS(=O)(=O)N3)cc(C)n1	Ames test	TA98	5000 µg/plate, without S9	relative to: solvent	revertant ratio treated over solvent	1.3
Nc1ccc2cc3ccccc3cc2c1	Ames test	TA1535	0.4 µg/well, 48 h, with S9	–	revertant colonies	244 colonies/well and 200 colonies/well and 168 colonies/well

A few entries again:
SMILES	test	system	setting	scale	quantity	result
O=[N+]([O-])c1ccc2c(c1)Cc1ccccc1-2	preincubation Ames test	TA98	5 µg per plate	–	revertant colonies per plate	1370
CN(N=O)c1ccc(F)cc1	mutagenicity, Ames plate incorporation	TA98	50 µg/plate, 3 d, without S9, methanol	–	revertant colonies per plate	37.3 ± 8
O=[N+]([O-])c1ccc2c(c1)Cc1ccccc1-2	Ames test, initial	TA98	1.0 µg/plate	relative to: solvent control	revertant ratio	7
Nc1ccc2cc3ccccc3cc2c1	–	TA1537	5 µg/plate, added: rat liver S9	relative to: vehicle control	revertant fold increase	28.4
